Results collected from several papers.
Parts stem from different laboratories: compare values within a part only. Substitutions count along the parent as printed.

Block 1 — target: CCNB3, cyclin fold, Cln2 fusion (human); method: yeast growth competition, sequencing; sample: yeast; notes: weak parent motif; baseline: not given; reading: higher = stronger binding
Starting sequence: CDC6 docking peptide (human); TLKGRRLVFDNQL
For `G4T`, “normalised enrichment score” read -0.0428.
For `G4Y`, “normalised enrichment score” read -0.348.
`L2M` — result for “normalised enrichment score”: 0.158.
`L2P`: “normalised enrichment score” 0.0553.
For `R5A L7A`, “normalised enrichment score” read 0.241.
For `D10N`, “normalised enrichment score” read 0.601.
`T1S` — result for “normalised enrichment score”: 0.32.
`R5M`: “normalised enrichment score” 0.0227.
`N11L`: “normalised enrichment score” -0.00396.
For `Q12I`, “normalised enrichment score” read 0.362.
For `L7K`, “normalised enrichment score” read 0.576.
`F9R` — result for “normalised enrichment score”: -0.0165.
`R6C`: “normalised enrichment score” 0.3.
`L2I`: “normalised enrichment score” 0.184.

Block 2 — method: competition protein-binding microarray; molecule type: double-stranded DNA, one strand shown; sample: in vitro; concentration: 2 µM; added: Pho4 competitor, 0.05 µM; reading: higher = stronger binding
Target: Centromere-binding protein 1, full length, His-tagged (CBF1, Saccharomyces cerevisiae, UniProt P17106, residues 1-351)
Chain of UniProt P17106 (whole entry, looked up): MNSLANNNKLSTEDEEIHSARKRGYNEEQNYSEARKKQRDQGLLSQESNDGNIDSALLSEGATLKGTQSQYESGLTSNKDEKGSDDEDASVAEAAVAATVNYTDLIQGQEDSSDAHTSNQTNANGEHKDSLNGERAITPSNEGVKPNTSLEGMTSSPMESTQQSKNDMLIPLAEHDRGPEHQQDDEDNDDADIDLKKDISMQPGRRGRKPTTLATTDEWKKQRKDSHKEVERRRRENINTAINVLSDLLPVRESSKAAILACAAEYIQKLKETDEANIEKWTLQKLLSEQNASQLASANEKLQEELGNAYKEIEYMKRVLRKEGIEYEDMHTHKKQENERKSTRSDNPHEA
Notes: whole 60-bp probe, lowest competitor level
The fluorescence intensity of `TCGCAGATGTTGCCCAGCCTGATCCAGCTCGTATTAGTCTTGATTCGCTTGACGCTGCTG` is reported as 54 a.u.
`GAATCCTATGCTTCACACATGAGGACAGGTTACGAAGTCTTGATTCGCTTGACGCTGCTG` has a fluorescence intensity of 68.7 a.u.
`CTTTCCCGATCTTGTCACTTAACTTTAGCACATTTGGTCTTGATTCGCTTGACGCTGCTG` gave a fluorescence intensity of 80.8 a.u.
For `CGGGGTTAAGTTTGGTATGTGGGTGGCTTGCAGCAGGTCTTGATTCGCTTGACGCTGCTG`, the fluorescence intensity was 77.3 a.u.
With `GGAGAAGGATTAGATCTCGTGCCGAACGACAGCAAGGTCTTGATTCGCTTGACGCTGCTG` the fluorescence intensity was 189 a.u.
With `CGTCCTAGTGATTGGGGAGTGGGTGCCATGAGGAAGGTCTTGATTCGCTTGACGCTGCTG` the fluorescence intensity was 77.6 a.u.
For `ATTCAACTTTGCTTCCACGTTAGTAGACAGTGGACCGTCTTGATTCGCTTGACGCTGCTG`, the fluorescence intensity was 72.1 a.u.
`TTAGTGCAAGAGGCACACATGCAGATTATGCATCAGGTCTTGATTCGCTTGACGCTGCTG` has a fluorescence intensity of 98.1 a.u.
For `AAAGCGGTAATTTGGCGTGTGGGTGCAGATATCTATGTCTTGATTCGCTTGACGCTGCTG`, the fluorescence intensity was 84.9 a.u.
`AAAGCGGTAATTTGGAAGGTGGGTGCAGATATCTATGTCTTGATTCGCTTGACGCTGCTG` has a fluorescence intensity of 73.4 a.u.
The fluorescence intensity of `AGGGTTACACTCCATCACGTGGGACACCATAATTTAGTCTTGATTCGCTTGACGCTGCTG` is reported as 1960 a.u.
`CTCAGTACTGATTGACACATGATTATACTGCGAGACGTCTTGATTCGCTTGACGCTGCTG` gave a fluorescence intensity of 240 a.u.

Block 3 — method: DHFR PCA, deep sequencing; sample: yeast; added: (+)-ABA 0 µM; baseline: wild-type fitted maximum; reading: higher = stronger binding
Target: ABI1, truncated, D143A, DHFR fusion (Arabidopsis thaliana)
Notes: methotrexate growth selection, single substitutions
Starting sequence: PYL1, truncated, DHFR fusion (Arabidopsis thaliana); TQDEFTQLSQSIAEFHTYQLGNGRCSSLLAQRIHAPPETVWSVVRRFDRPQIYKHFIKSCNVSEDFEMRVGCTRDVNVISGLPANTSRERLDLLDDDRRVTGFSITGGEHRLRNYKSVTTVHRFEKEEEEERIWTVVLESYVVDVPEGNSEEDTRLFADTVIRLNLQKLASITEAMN; partner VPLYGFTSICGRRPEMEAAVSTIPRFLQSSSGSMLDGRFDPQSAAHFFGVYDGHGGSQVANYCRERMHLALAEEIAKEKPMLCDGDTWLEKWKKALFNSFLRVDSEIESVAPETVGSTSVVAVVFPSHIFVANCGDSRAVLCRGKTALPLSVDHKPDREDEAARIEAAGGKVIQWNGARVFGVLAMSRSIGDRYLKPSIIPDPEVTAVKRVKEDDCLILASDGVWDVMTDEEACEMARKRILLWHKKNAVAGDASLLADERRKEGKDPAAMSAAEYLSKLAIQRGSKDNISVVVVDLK
For `D92N`, “relative binding score” read 2.08%.
For `V40H`, “relative binding score” read -6.37%.
`C72M` — result for “relative binding score”: 21.2%.
Under “relative binding score”, `T86V` is recorded as 41.4%.
Under “relative binding score”, `F103H` is recorded as 2.09%.
`I57A` — result for “relative binding score”: -0.564%.
`V121N`: “relative binding score” -1%.
For `V40D`, “relative binding score” read -0.31%.
Under “relative binding score”, `Y18M` is recorded as 2.04%.
`D96V` — result for “relative binding score”: -4.65%.
`E38A` — result for “relative binding score”: 1.47%.
Under “relative binding score”, `K168W` is recorded as 14.4%.
`G148P` — result for “relative binding score”: 1.23%.

Other studies, line by line
`PhoQ, residues 284 288 289 292 302 303 SNGLAW` has a fold induction of 11.8 (PhoP, residues 12 14 15 18 19 LHHSG (Escherichia coli, UniProt P23836); Sort-seq, item: YFP reporter; E. coli; PhoQ-PhoP variant library, added: 10 µM Mg2+; baseline: high Mg2+ state, higher = stronger signaling).

Some of these lines once more (block 3):
`D96V` — result for “relative binding score”: -4.65%.
Under “relative binding score”, `Y18M` is recorded as 2.04%.
For `V40H`, “relative binding score” read -6.37%.
Under “relative binding score”, `F103H` is recorded as 2.09%.
Under “relative binding score”, `K168W` is recorded as 14.4%.
`V121N`: “relative binding score” -1%.
